Experimental data gathered from unrelated publications.
Protocols differ between the studies behind these lines. Several values in a cell are separate wells, animals, samples, runs or records. Numbers after ± are the reported error.
Chain of UniProt P29466 (whole entry, looked up): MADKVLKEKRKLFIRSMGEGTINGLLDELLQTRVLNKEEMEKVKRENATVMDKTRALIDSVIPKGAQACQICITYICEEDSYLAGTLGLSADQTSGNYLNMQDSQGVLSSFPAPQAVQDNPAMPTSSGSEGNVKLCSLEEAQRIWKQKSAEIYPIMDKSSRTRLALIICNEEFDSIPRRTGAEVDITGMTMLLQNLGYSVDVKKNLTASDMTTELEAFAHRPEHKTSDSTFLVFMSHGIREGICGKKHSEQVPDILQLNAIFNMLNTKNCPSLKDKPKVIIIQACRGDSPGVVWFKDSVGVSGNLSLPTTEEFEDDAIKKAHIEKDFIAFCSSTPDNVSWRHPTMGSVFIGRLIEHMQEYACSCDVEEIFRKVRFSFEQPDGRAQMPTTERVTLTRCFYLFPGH
Chain of UniProt O95347 (whole entry, looked up): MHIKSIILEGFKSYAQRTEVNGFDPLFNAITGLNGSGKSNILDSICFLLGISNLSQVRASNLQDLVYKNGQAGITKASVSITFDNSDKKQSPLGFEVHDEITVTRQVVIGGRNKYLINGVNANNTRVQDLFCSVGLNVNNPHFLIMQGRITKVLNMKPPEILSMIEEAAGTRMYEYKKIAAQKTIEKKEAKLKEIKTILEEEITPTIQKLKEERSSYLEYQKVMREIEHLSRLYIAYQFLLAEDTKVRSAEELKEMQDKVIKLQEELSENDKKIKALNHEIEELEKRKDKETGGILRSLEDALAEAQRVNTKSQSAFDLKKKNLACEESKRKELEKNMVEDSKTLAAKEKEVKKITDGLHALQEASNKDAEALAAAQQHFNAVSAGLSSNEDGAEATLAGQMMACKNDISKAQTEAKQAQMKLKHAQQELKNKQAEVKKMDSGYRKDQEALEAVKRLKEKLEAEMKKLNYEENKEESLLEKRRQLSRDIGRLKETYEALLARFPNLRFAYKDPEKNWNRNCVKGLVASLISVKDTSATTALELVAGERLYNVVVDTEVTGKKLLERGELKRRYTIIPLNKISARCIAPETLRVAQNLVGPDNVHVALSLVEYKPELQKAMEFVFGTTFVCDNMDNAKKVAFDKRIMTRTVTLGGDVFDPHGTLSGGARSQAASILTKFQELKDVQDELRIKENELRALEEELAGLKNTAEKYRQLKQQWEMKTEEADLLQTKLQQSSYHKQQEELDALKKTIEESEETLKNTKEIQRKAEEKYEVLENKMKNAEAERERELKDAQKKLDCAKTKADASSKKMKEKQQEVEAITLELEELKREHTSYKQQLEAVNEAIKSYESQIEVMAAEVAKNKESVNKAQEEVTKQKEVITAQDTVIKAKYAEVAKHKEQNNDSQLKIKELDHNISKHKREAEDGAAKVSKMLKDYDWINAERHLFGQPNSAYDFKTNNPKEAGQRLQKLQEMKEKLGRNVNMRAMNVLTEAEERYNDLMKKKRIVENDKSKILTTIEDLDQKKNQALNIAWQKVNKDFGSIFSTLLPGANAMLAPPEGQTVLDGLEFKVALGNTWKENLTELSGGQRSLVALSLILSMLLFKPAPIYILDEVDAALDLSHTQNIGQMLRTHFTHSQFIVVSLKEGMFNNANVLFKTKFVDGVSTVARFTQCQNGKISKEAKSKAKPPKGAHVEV

Clc1ccc(-c2ccccc2)cc1 — serum triglycerides (rat Sprague-Dawley female, serum; inhalation, 23 µg/rat, 2 h): 51 ± 21 mg/dL
CCN(CCO)CCCC(C)Nc1ccnc2cc(Cl)ccc12 (stereo not shown) — anemia patients (newly diagnosed glioblastoma patients; oral, 200 mg/dose, grade 1, added: radiotherapy and temozolomide): 66%
CC[C@H](C)[C@H](NC(=O)[C@H](Cc1ccccc1)NC(=O)[C@H](CCC(=O)O)NC(=O)[C@H](CCCNC(=N)N)NC(=O)[C@H](C)NC(=O)[C@H](C)NC(=O)[C@H](CCC(N)=O)NC(=O)[C@H](CCC(=O)O)NC(=O)[C@H](CCC(=O)O)NC(=O)[C@H](CC(C)C)NC(=O)[C@H](Cc1ccc(O)cc1)NC(=O)[C@H](CO)NC(=O)[C@H](CO)NC(=O)[C@@H](NC(=O)[C@H](CC(=O)O)NC(=O)[C@H](CO)NC(=O)[C@@H](NC(=O)[C@H](Cc1ccccc1)NC(=O)[C@@H](NC(=O)CNC(=O)[C@H](CCC(=O)O)NC(=O)[C@H](C)NC(=O)CCc1cnc[nH]1)[C@@H](C)O)[C@@H](C)O)C(C)C)C(=O)N[C@@H](C)C(=O)N[C@@H](Cc1c[nH]c2ccccc12)C(=O)N[C@@H](CC(C)C)C(=O)N[C@H](C(=O)N[C@@H](CCCNC(=N)N)C(=O)NCC(=O)N[C@@H](CCCNC(=N)N)C(=O)N[C@@H](CCCCNC(=O)COCCOCCNC(=O)COCCOCCNC(=O)CC[C@H](NC(=O)CCCCCCCCCCCCCCCCC(=O)O)C(=O)O)C(=O)NCC(=O)NCC(=O)N[C@@H](CO)C(=O)N[C@@H](CCCCNC(=O)[C@H](CCCCNC(=O)[C@H](CCCCNc1c(NCCCCCN(O)C(=O)CCC(=O)NCCCCCN(O)C(=O)CCC(=O)NCCCCCN(O)C(C)=O)c(=O)c1=O)Nc1c(NCCCCCN(O)C(=O)CCC(=O)NCCCCCN(O)C(=O)CCC(=O)NCCCCCN(O)C(C)=O)c(=O)c1=O)NC(=O)[C@H](CCCCNc1c(NCCCCCN(O)C(=O)CCC(=O)NCCCCCN(O)C(=O)CCC(=O)NCCCCCN(O)C(C)=O)c(=O)c1=O)Nc1c(NCCCCCN(O)C(=O)CCC(=O)NCCCCCN(O)C(=O)CCC(=O)NCCCCCN(O)C(C)=O)c(=O)c1=O)C(=O)O)C(C)C [zirconium-89 labelled] — tissue uptake (ex vivo gamma counting; male Sprague-Dawley rat, stomach-duodenum; intravenous, 1 nmol, 24 h): 0.595 %ID/g
Clc1ccc(Cl)c(-c2cc(Cl)ccc2Cl)c1 — log K(PDMS-water) (fresh water; 20 °C, SSP sampler, 100 µm): 5.45 ± 0.03
CC(=O)c1c(C)c2cnc(Nc3ccc(C4CCN(CCS(C)(=O)=O)CC4)cn3)nc2n(C2CCCC2)c1=O — elimination rate constant (human patients, plasma; oral, 100 mg twice daily, day 1 single dose, added: fulvestrant): 3.06e-05 s⁻¹
COc1cccc2c1CCCC2CCCN1CCN(C2CCCCC2)CC1 (stereo not shown) — elimination rate constant (CD-1 mouse, male, plasma; intraperitoneal, 30 mg/kg): 6.03e-05 s⁻¹
N=C(N)NCCNC(=O)C1(Nc2ccccc2)CCN(Cc2ccccc2)CC1 — unchanged urinary recovery (Sprague-Dawley rat, female, urine; intravenous, 2.5 mg/kg, time not given): 1.6 ± 0.5%
CCOc1cc(Oc2ccc(C(F)(F)F)cc2Cl)ccc1[N+](=O)[O-] — final body weight (rat male; 0.8125 mg/kg, 8 days): 145 ± 7.52 g
N.N.O=C([O-])C1(C(=O)[O-])CCC1.[Pt+2] — AUC(0-48 h) (ICP-MS platinum, refers to: platinum; human patients, plasma ultrafiltrate; dose not given, carboplatin target AUC 3, cycle 1 day 1): 64500 ng·h/mL
O=S(=O)(Nc1ccccc1)c1ccc(NC(=S)Nc2ccccc2)cc1 — blood chemistry level (refers to: BUN; male mouse, blood; oral, 80 mg/kg daily, 14 days): 19 mg/dL
CN1CC[C@@H](c2c(O)cc(O)c3c(=O)cc(-c4ccc(C(F)(F)F)cc4Cl)oc23)[C@@H]1CO — adverse event incidence (refers to: Diarrhea; relapsed or refractory haematological malignancies; oral, dose not given, all grades): 30%
C[C@@H](NC(=O)N1C(=O)[C@H](Cc2ccnc(N)c2)[C@H]1C(=O)O)C1CCCCC1 — decreased WBC (healthy Chinese adults; continuous intravenous infusion, 1.0 mg/kg/h, 5.0 days): 0%
Cc1cc(NC2CCN(C(=O)OC3CCN(C(=O)/C=C/CN(C)C)C3)CC2)n2ncc(C(C)C)c2n1 (stereo not shown) — MTD (rat; oral, daily for 4 weeks, body surface area normalised): 36 mg/m2
O=C(O)CCCOc1ccc(F)cc1-c1cc(-c2ccccc2C(F)(F)F)n(-c2ccccc2)n1 — relative organ weight (male Crl:CD(SD) rats, brain; intravenous, 25 µg/kg, 14 d): 0.49 ± 0.02 g%
CC(C)c1nc(N(C)S(C)(=O)=O)nc(-c2ccc(F)cc2)c1/C=C/[C@@H](O)C[C@@H](O)CC(=O)O — incidence of abdominal discomfort (healthy human subjects; oral, dose not given, study CL-0537 safety set): 0%
COc1cc(Nc2ncc(F)c(Nc3ccc4c(n3)NC(=O)C(C)(C)O4)n2)cc(OC)c1OC — IC50 (Caspase-1 (CASP1, Homo sapiens, UniProt P29466)): > 10 µM
COc1ccc(C[C@@H]2NC(=O)[C@H]([C@@H](C)O)NC(=O)[C@@H]3[C@@H]4CCN3C(=O)[C@@H]3Cc5cn(c6ccc(F)cc56)CCCCCCN(Cc5ccc(cc5)CCNC(=O)[C@]5(C)CCCN5C2=O)C(=O)CCC(=O)N[C@@H](C)C(=O)N[C@H](CNC(=O)CCCCC[N+](C)(C)C)C(=O)N[C@@H](Cc2cccc(c2)CNC(=O)CO4)C(=O)N3)cc1 — participants with adverse event (refers to: dry mouth; human; dose not given): 6.5%
N#C[C@H](O[C@@H]1O[C@H](CO)[C@@H](O)[C@H](O)[C@H]1O)c1ccccc1 — Vz/F (Sprague Dawley rat, plasma; oral, 3.34 g lyophilized powder/kg, low dose): 20.4 ± 8.66 L/kg
COc1cc2c(cc1OC)CN(CCc1ccc(NC(=O)c3cccc4c(=O)c5cccc(OC)c5[nH]c34)cc1)CC2 — AUC(0-t) (CD-1 mouse, male, plasma; intraperitoneal, 3 mg/kg): 2350 ng·h/mL
Clc1ccc(-c2cc(Cl)c(Cl)cc2Cl)cc1Cl — literature range factor (PDMS-water partitioning; PCB compilation; reference: maximum over minimum K): 2
CCCCCCCCCCCCCCCC(=O)N[C@@H](CCC(=O)NCCCC[C@H](NC(=O)[C@H](CC(=O)O)NC(=O)[C@H](CO)NC(=O)[C@@H](NC(=O)[C@H](Cc1ccccc1)NC(=O)[C@@H](NC(=O)CNC(=O)[C@H](CCC(N)=O)NC(=O)[C@H](CO)NC(=O)[C@@H](N)Cc1c[nH]cn1)[C@@H](C)O)[C@@H](C)O)C(=O)N[C@@H](CO)C(=O)N[C@@H](CCC(=O)O)C(=O)N[C@@H](Cc1ccc(O)cc1)C(=O)N[C@@H](CC(C)C)C(=O)N[C@@H](CC(=O)O)C(=O)N[C@@H](CO)C(=O)N[C@@H](CCC(=O)O)C(=O)N[C@@H](CCCNC(=N)N)C(=O)N[C@@H](C)C(=O)N[C@@H](CCCNC(=N)N)C(=O)N[C@@H](CC(=O)O)C(=O)N[C@@H](Cc1ccccc1)C(=O)N[C@H](C(=O)N[C@@H](C)C(=O)N[C@@H](Cc1c[nH]c2ccccc12)C(=O)N[C@@H](CC(C)C)C(=O)N[C@@H](CCC(=O)O)C(=O)N[C@@H](C)C(=O)NCC(=O)NCC(=O)O)C(C)C)C(=O)O — treatment-related adverse events (refers to: Nausea; humans CrCl 20 to 30 mL/min; subcutaneous, 100 µg single dose): 37.5%
CC(C)C[C@@H]1NC(=O)CNC(=O)[C@H](CC(N)=O)NC(=O)[C@H](CCCNC(=N)N)NC(=O)[C@H]([C@@H](C)O)NC(=O)[C@@H]2CSSC[C@@H]3NC(=O)[C@H]([C@@H](C)O)NC(=O)CNC(=O)CNC(=O)[C@H](C(C)C)NC(=O)[C@@H]4CSSC[C@H](NC(=O)[C@H]([C@@H](C)O)NC(=O)[C@H](CSSC[C@H](NC(=O)[C@H](C(C)C)NC(=O)[C@@H]5CCCN5C1=O)C(=O)NCC(=O)N[C@@H](CCC(=O)O)C(=O)N[C@@H]([C@@H](C)O)C(=O)N4)NC(=O)CNC(=O)[C@@H]1CCCN1C(=O)[C@H]([C@@H](C)O)NC(=O)[C@H](CC(N)=O)NC3=O)C(=O)N[C@@H](CCCCN)C(=O)N[C@@H](Cc1c[nH]c3ccccc13)C(=O)N1CCC[C@H]1C(=O)N[C@@H](C(C)C)C(=O)N2 — remaining peptide (HPLC; ammonium bicarbonate 0.1 M; 180 µM, 14 days, pH 9.0, 37 °C, deamidation stability): 31.9 ± 3.2%
Clc1ccc(Cl)c(-c2cc(Cl)ccc2Cl)c1 — relative liver weight (Sprague Dawley rat; intraperitoneal, 10 mg/kg): 0.0392 g/g body weight
CCN1CC2(CCN(CCc3cc(F)ccc3F)CC2)O[C@H](C)C1=O — AUC(0-inf) (ferret, plasma; intraperitoneal, 0.5 mg/kg): 1100 ± 102 ng·h/mL
CC(C)C[C@@H]1NC(=O)[C@H](CC(N)=O)NC(=O)[C@H](CCCNC(=N)N)NC(=O)[C@H]([C@@H](C)O)NC(=O)[C@@H]2CSSC[C@@H]3NC(=O)[C@H]([C@@H](C)O)NC(=O)CNC(=O)CNC(=O)[C@H](C(C)C)NC(=O)[C@@H]4CSSC[C@H](NC(=O)[C@H](CCCCN)NC(=O)[C@H](CSSC[C@H](NC(=O)[C@H](C(C)C)NC(=O)[C@@H]5CCCN5C(=O)[C@H](CC(C)C)NC1=O)C(=O)NCC(=O)N[C@@H](CCC(=O)O)C(=O)N[C@@H]([C@@H](C)O)C(=O)N4)NC(=O)CNC(=O)[C@@H]1CCCN1C(=O)[C@H]([C@@H](C)O)NC(=O)[C@H](CC(N)=O)NC3=O)C(=O)N[C@@H](CO)C(=O)N[C@@H](Cc1c[nH]c3ccccc13)C(=O)N1CCC[C@H]1C(=O)N[C@@H](C(C)C)C(=O)N2 — remaining peptide (HPLC; ammonium bicarbonate 0.1 M; 180 µM, 14 days, pH 9.0, 37 °C, deamidation stability): 90.1 ± 4.5%
N[C@@H]1c2ccccc2OC12CCN(c1cnc3c(N4CCCc5ncccc54)n[nH]c3n1)CC2 — decreased appetite TEAE incidence (patients advanced metastatic solid tumours; oral, 60 mg once daily, pooled cohort): 24%
COc1c(OCCCN2CCOCC2)ccc2c1N=C(NC(=O)c1cnc(N)nc1)N1CCN=C21 — HbA1c (human, diabetic patients, baseline HbA1c above 6.5%; dose not given, after treatment): 7.3 ± 1.1%
C=C(CN(C(=O)c1c(C(F)F)nn(C)c1F)C1CC1)c1ccc(Cl)cc1Cl — mortality (static acute toxicity test; zebrafish (Brachydanio rerio); 0.482 mg a.i./L, 48 h): 0%
C[C@H]1CN(c2n[nH]c3nc(N[C@H]4CC[C@H](NS(=O)(=O)CCC(F)(F)F)CC4)ncc23)CCO1 — remaining binding (Structural maintenance of chromosomes protein 2 (Homo sapiens, UniProt O95347); Kinobeads competition, refers to: SMC2; 0.032 µM, unit not given; reference: vehicle): 0.94
C[C@]1(CO)Cc2ncn(-c3ccc(C#N)c(Cl)c3)c2C(=O)O1 — subjects with drug-related urine abnormality (human; 80 mg multiple doses, fasted): 0%
COc1cc2c(Oc3ccc4[nH]c(C)cc4c3F)ccnc2cc1OCC1(N)CC1 — grade 1 or 2 Cholesterol elevation (paediatric recurrent refractory sarcoma; 8 mg): 0%
CO[C@H]1C[C@@H]2CC[C@@H](C)[C@@](O)(O2)C(=O)C(=O)N2CCCC[C@H]2C(=O)O[C@H]([C@H](C)C[C@@H]2CC[C@@H](OC(=O)NCCOCCOCCOCCOCCOCCOCCOCCOCCC(=O)N3CCc4cc(Cn5nc(-c6ccc7oc(N)nc7c6)c6c(N)ncnc65)ccc4C3)[C@H](OC)C2)C[C@@H](O)[C@H](C)/C=C(\C)[C@@H](O)[C@@H](OC)C(=O)[C@H](C)C[C@H](C)/C=C/C=C/C=C/1C — nausea incidence (patients with advanced solid tumours; intravenous, 6 mg weekly, any grade): 50%
NC(=O)[C@H]1CCN(c2ncnc(N)c2F)C[C@@H]1N1CCC[C@@H](Nc2cc(Cl)cc(C(F)(F)F)c2)C1=O — grade ≥3 hyponatraemia (B-cell malignancy patients; oral, 164 mg twice daily, dose): 25%
COc1ncccc1-c1cnn2ccc(N3CCN(C(=O)OC(C)C)CC3)nc12 — free drug concentration (rat, thermal hyperalgesia model, plasma; oral, 0.3 mg/kg, 180 min): 1 nM
Clc1cc(Cl)c(-c2ccc(Cl)c(Cl)c2Cl)cc1Cl — log K(PDMS-water) (fresh water; 20 °C): 6.41 ± 0.06
COc1cccc(Oc2ccccc2NC(=O)CNC(=O)c2cccc3ccccc23)c1 — eosinophils (esterase-deficient SCID mice, male, blood; oral, 100 mg/kg/day, 14 days, toxicity study; reference: white cells): 1% and 1.8% and 2.8%
c1ccc2c(c1)-c1ccc3ccc4cccc5cc-2c1c3c45 — log K(PDMS-water) (fresh water; 20 °C, S30-2 sampler, 30 µm): 5.54 ± 0.08
CN1CCN(c2ccc(Nc3nccc(-c4ccc([N+](=O)[O-])cc4)n3)cc2C(F)(F)F)CC1 — toxicity (Danio rerio embryos; 5 µM, 5 d): 67%
CC(C)[C@H](C(=O)O[C@H](C#N)c1cccc(Oc2ccccc2)c1)c1ccc(Cl)cc1 — CLint (pooled human liver cytosol): 35 µL/min/mg
O=C1Nc2cc3[nH]nc(-c4ccncc4)c3cc2CN1Cc1ccccc1 — patients with decreased appetite (CTCAE v4.03; advanced solid tumour patients; intravenous, 1.8 mg/kg, schedules 1/2): 100%

Excerpt of the above:
O=C(O)CCCOc1ccc(F)cc1-c1cc(-c2ccccc2C(F)(F)F)n(-c2ccccc2)n1 — relative organ weight (male Crl:CD(SD) rats, brain; intravenous, 25 µg/kg, 14 d): 0.49 ± 0.02 g%
CO[C@H]1C[C@@H]2CC[C@@H](C)[C@@](O)(O2)C(=O)C(=O)N2CCCC[C@H]2C(=O)O[C@H]([C@H](C)C[C@@H]2CC[C@@H](OC(=O)NCCOCCOCCOCCOCCOCCOCCOCCOCCC(=O)N3CCc4cc(Cn5nc(-c6ccc7oc(N)nc7c6)c6c(N)ncnc65)ccc4C3)[C@H](OC)C2)C[C@@H](O)[C@H](C)/C=C(\C)[C@@H](O)[C@@H](OC)C(=O)[C@H](C)C[C@H](C)/C=C/C=C/C=C/1C — nausea incidence (patients with advanced solid tumours; intravenous, 6 mg weekly, any grade): 50%
